Experimental data collected from several papers.
Every numbered part comes from another study and shows a few of its results, in no order. Changes are numbered by the printed parent chain.

Set 1 — method: protein-binding microarray; form: hairpin DNA; medium: in vitro; tested at: not given; reference: not given; reading: higher = stronger binding; constant ends, left off below: GAGGCCA … TGGCCTCACACTC
Target: Protein C-ets-1, full length (ETS1, Homo sapiens, UniProt P14921, residues 1-441)
Setting: whole hairpin DNA, median over replicate spots
Target sequence (chain): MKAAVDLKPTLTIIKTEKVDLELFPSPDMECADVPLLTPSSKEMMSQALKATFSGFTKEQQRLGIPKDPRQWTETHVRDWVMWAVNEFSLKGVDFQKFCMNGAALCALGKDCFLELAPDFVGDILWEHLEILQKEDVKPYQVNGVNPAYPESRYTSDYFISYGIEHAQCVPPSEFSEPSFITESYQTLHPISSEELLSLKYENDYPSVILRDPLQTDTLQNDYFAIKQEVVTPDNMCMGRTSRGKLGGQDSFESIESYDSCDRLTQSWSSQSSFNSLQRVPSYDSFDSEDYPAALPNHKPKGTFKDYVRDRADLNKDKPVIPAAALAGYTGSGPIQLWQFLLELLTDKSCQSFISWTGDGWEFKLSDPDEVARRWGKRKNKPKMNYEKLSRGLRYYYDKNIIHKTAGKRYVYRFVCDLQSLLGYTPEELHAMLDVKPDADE
Strand | median fluorescence [a.u.]
GCCGGAACGTGCCTCCTGGCACGTTCCGGC (5mC at 15) | 1010
GCCGGAAGCGGCCTCCTGGCCGCTTCCGGC | 7640
CGCGGAAGTTGCCTCCTGGCAACTTCCGCG | 5590
CCCGGAAGTTGCCTCCTGGCAACTTCCGGG (5mC at 8) | 6870
GTCGGAAGCGGCCTCCTGGCCGCTTCCGAC | 1640
GCCGGAGGTTGCCTCCTGGCAACCTCCGGC | 830
CTCGGAAGTTGCCTCCTGGCAACTTCCGAG | 2650
GCCGGAAGATGCCTCCTGGCATCTTCCGGC | 3600

Set 2 — method: competition protein-binding microarray; form: double-stranded DNA, one strand shown; medium: in vitro; tested at: 2 µM; together with: Cbf1 competitor, 0.05 µM; reading: higher = stronger binding; constant ends, left off below: … GTCTTGATTCGCTTGACGCTGCTG
Target: Phosphate system positive regulatory protein PHO4, full length, GST-tagged (PHO4, Saccharomyces cerevisiae, UniProt P07270, residues 1-312)
Setting: whole 60-bp probe, lowest competitor level
Construct (chain): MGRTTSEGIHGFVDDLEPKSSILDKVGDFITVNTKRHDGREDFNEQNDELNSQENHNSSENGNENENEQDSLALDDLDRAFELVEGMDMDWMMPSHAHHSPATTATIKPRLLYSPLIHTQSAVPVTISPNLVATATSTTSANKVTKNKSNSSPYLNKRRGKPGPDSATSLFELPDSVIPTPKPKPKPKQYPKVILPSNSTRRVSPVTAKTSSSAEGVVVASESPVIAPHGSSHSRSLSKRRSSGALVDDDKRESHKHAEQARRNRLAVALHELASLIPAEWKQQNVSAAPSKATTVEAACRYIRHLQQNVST
Strand | fluorescence intensity [a.u.]
AAAGCGGTAATTTGTAGAGTGGGTGCAGATATCTAT | 4560
CGTCCTAGTGATTGCCTCGTGGGTGCCATGAGGAAG | 13300
GTCTTGTCTCATTGCCACGTGGGTGTCCCCACTTCA | 19100
CATACCCAACCTTGTGGTGTGGGTGAAGATATTTGT | 7220
GGTGCCTTATTTCCGCACGTTTTTCAACATACGGCT | 13100
TATTTGGCCTTTTTGCACGTCGACTGGGCCATTTCC | 4270
GTCTTGTCTCATTGGGTAGTGGGTGTCCCCACTTCA | 5150
CACCTCCCCCTAAATCTCGTGATGGGAGTTTCAAGT | 6670

Set 3 — target: CCNA2, cyclin fold, Cln2 fusion (human); method: yeast growth competition, sequencing; medium: yeast; setting: strong parent motif; reference: not given; reading: higher = stronger binding
Starting sequence: viral docking peptide; YKVKRRLVFGADD; partner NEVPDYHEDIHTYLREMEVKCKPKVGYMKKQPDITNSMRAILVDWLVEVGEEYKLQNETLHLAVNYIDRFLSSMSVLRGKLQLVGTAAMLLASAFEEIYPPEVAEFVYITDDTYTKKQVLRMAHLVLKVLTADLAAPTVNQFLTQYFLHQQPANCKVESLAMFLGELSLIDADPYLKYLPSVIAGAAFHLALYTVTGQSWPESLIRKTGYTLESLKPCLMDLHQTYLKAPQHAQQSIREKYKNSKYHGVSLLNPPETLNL
Change | normalised enrichment score
R6N | 3.03
L7T | 0.717
F9D | 0.756
V3M | 4.6
K4Q | 6
R5K | 6.07
R5M | 3.93
A11N | 6.23
A11G | 6.39
R6P | 2.47
F9S | 0.573
R5K F9L | 2.15
D12H | 6.29
D12F | 6.14
G10N | 6.42
K2F | 6.08
V8C | 6.66
K4V | 5.33
L7I | 5.43
D13A | 6.42
G10P | 6.28
L7N | 0.679
L7W | 1.3
R6D | 0.653
R6W | 1.62

Set 4 — method: RNA Bind-n-Seq; form: RNA; medium: in vitro; tested at: not given; reference: input RNA pool; reading: higher = stronger binding
Target: RING finger protein unkempt homolog, zinc fingers 1-6, GST-SBP tag (UNK, Homo sapiens, UniProt Q9C0B0, residues 30-357)
Setting: RNA with constant flanks, human-mouse chimeric sites, ends assumed
Constant ends, left off below: GGGAGUUCUACAGUCCGACGAUC … CAACAGAGGAUUGAGCAUCA
Target sequence (chain): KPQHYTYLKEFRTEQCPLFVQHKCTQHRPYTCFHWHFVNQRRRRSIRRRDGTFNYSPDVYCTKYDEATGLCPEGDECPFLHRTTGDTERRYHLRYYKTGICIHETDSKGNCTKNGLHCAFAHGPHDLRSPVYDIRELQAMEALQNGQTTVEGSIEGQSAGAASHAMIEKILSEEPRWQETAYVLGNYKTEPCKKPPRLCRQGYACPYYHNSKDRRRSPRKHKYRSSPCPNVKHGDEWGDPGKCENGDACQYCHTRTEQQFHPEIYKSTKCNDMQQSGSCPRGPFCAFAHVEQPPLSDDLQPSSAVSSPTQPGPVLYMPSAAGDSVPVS
Strand | bound/input enrichment
AAAAUAGACUAUGGCGAGUACAUGGAUAAAAACAAUGUGAGGCGGCAAGCAACAACAAUCAUAGCUGAUAACAUUAUAUUUCUGAGUGACCAGACAAAAGAGAAGGAAUAGAACGGAUGA | 3.03 ratio
UGACAAGCACGAGCAUCAGCCAUGCCUUUCCUUGACAUACAGAAAAAGCUGGGCAUCAGCCUGGACCGGCACUUUAUGUUCCUAAGCGCAGAACAGCCCUAUAAGAACGCCGCUCGGUGC | 0.0881 ratio
AAUUUCCUGUCAUACUUUUUAGACAUUCACAUCAGACUUACAGAGCACCUGGCCACAUUCUAGGUUUGUGUUAUUUCUCAGCUAUGGGGGUAUGAUUAUGAGAACACUGCUUAACUAAUG | 0.825 ratio
CGCGUCCUCUCGCUGCUGCGGAGCCCGAGCUGGGAACCAUUCCGGGACGACUGGUACGCACACAGCCGCCUCUUCGAUCAAGCUUUCGGGGUGCCCCGGUUGCCCGAUGAGUGGUCGCAG | 0.106 ratio
UGGGCACUGUAUCAGAUAUAUUAAUUUUUUAAUGUAGAUGUAAUUUUAAAAAUGAAUGGCUACUUUACACGUUUAACUAGGGUUUUACUAUAUAUGUGUACAUAUGUAUAUAUAUAUAUA | 16 ratio
ACUCAGAGAUCCACCUCCCAAAGUGCUGGGAGUAAAGUCUGAUAUUACACACCUAACUUGAUGGAUAUAUAUUUUUUUUAAUAUGAAUGAACUCUUGCGUCCAGGGAAGAAAGAUUUGUU | 0.499 ratio
UAAGUCCUGUGCCAGCAAUUUAUCCCAAAAGUUUUAAAUUCUGGACCAAUAGUGUUUAUCUUUAGAAUAUUGUAUCCAAUACUUUGCCUAGUAUGUAACUCACUCUUACUGAUAAUAAAA | 23.6 ratio
GUGCCCUCCUUCUCGCUGCGGAGCCCGAGCUGGGAACCAUUCCGGGACUGGUACCCUGCACACAGCCGCCUCUUCGAUCAAGCUUUCGGGGUGCCCCGGUUGCCCGAUGAGUGGUCGCAG | 0.0917 ratio

Set 5 — target: tungstate, free oxyanion; method: microfluidic competitive inhibition; medium: in vitro, cell-free expressed; tested at: not given; reading: lower = stronger binding
Setting: derived from inhibition constants, unchanged parent 2230 nM
Starting sequence: PafA, mature enzyme, eGFP fusion (Elizabethkingia meningoseptica, UniProt Q9KJX5); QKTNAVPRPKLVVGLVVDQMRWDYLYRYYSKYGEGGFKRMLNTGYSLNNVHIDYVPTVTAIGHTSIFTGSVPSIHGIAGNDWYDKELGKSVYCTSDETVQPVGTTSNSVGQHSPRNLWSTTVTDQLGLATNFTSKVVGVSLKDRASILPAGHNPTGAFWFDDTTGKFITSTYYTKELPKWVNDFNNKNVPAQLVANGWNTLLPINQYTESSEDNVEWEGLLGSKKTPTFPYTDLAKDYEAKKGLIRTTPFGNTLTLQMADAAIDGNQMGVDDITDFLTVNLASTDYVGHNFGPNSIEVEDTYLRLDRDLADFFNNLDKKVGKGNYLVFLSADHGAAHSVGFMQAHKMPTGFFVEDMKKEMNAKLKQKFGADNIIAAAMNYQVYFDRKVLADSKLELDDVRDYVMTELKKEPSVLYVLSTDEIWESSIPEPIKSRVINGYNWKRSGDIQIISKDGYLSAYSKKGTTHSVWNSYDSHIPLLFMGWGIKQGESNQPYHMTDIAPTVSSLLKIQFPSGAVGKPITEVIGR
Change | oxyanion analog dissociation constant [µM]
T502G | 1.5
E410G | 2.48
L15G | 1.7
G197A | 1.56

Mixed results
SMILES | organism | read-out | tested at | setting | endpoint | result
Brc1c(NC2=NCCN2)ccc2nccnc12.O=C(O)C(O)C(O)C(=O)O | Vesicular stomatitis virus | pseudovirus infection | concentration not given | VSV-G control pseudotype | GFP signal | 115%

For quick reference, copied from above (set 3):
Change | normalised enrichment score
L7W | 1.3
K4V | 5.33
L7N | 0.679
R6D | 0.653
